Measured values pooled from the literature.
Each line is one published result; not all experiments were run side by side. ± gives the spread as reported.

Structure (SMILES)	target or system	assay	test system	conditions	scale	measurement	result
CC[C@H](C)[C@H](NC(=O)c1ccc2c(c1)C(=O)OC21c2ccc(N(C)C)cc2Oc2cc(N(C)C)ccc21)C(=O)N[C@H](C(=O)N[C@@H](C)C(=O)N[C@@H](CC(C)C)C(=O)N[C@H](C(=O)N[C@@H](CO)C(=O)N[C@@H](CC(N)=O)C(=O)N[C@@H](CCC(N)=O)C(=O)N[C@@H](CCC(=O)O)C(=O)N[C@@H](Cc1ccc(OP(=O)(O)O)cc1)C(=O)N[C@@H](CC(C)C)C(=O)N[C@@H](CC(=O)O)C(=O)N[C@@H](CC(C)C)C(=O)N[C@@H](CO)C(=O)N[C@@H](CCSC)C(=O)N1CCC[C@H]1C(=O)N[C@@H](CC(C)C)C(=O)N[C@@H](CC(=O)O)C(=O)O)[C@@H](C)O)C(C)C	1-phosphatidylinositol 4,5-bisphosphate phosphodiesterase gamma-2, SH2 domain (PLCG2, Homo sapiens, UniProt P16885)	binding				Kd	1.47 µM
CCOC(=O)C(C)(COP(=O)(OC)OCCCCCCNC(=O)c1cc2ccccc2oc1=O)C(=O)CSC(C)=O (stereo not drawn)	Retinal rod rhodopsin-sensitive cGMP 3',5'-cyclic phosphodiesterase subunit delta (PDE6D, Homo sapiens, UniProt O43924)	ligand displacement, FP				Kd	7.27 µM
COc1ccccc1-c1n[nH]c2nc(NC3CCN(C(=O)Cc4ccc(F)cc4F)CC3)ncc12		bead binding, competition bead pull-down, measured: LINJ.31.0710	Leishmania donovani axenic amastigote extract	10 µM	reference: vehicle	relative abundance	1.29
C=CC[C@H]1OC(=O)CCNC(=O)[C@H](C)N(C)C(=O)[C@H]([C@@H](C)CC)N(C)C(=O)[C@H]([C@@H](C)CC)NC(=O)[C@@H]2[C@@H](C)CCN2C1=O	Platelet-derived growth factor receptor beta, extracellular domain (PDGFRB, Homo sapiens, UniProt P09619)	SPR		28 °C, extracellular domain immobilised		Kd	8.35 µM
O=C(N[C@@H]1c2ccccc2C[C@H]1N1CCCC1)c1ccc(-c2ccnc3[nH]ccc23)nc1	Serine/threonine-protein kinase PAK 4 (PAK4, Homo sapiens, UniProt O96013)	binding, competition with immobilised ligand				Kd	0.17 µM
CC[C@@H](C)[C@@H](NC(=O)[C@@H](CCC(N)=O)NC(=O)[C@H](NC(=O)[C@H]1CCCN1C(=O)[C@H](NC(=O)[C@@H](CO)NC(=O)[C@@H](Cc1ccccc1)NC(=O)[C@H]1CCCN1C(=O)[C@@H](CCC(N)=O)NC(=O)[C@H](N)CCSC)[C@H](C)CC)C(C)C)C(=O)N[C@@H](C(=O)N[C@H](CC(C)C)C(=O)N[C@H](CCC(N)=O)C(=O)NCC(=O)N[C@H](CO)C(=O)N[C@H](CCCNC(=N)N)C(=O)N[C@H](CCCNC(=N)N)C(=O)N[C@H](CCCNC(=N)N)C(=O)N[C@H](CCC(N)=O)C(=O)NCC(=O)N[C@H](CCCNC(=N)N)C(N)=O)[C@H](C)O	Kcnma1 (Mus musculus, UniProt Q08460)	ion current, blocker, inside-out patch clamp	Xenopus oocytes	+80 mV, together with: 10 µM cytosolic Ca2+		Kd	4.7 µM
CC[C@H](C)[C@H](NC(=O)[C@H](CCCCNC(=O)CN(CCNC(=O)CN(CCNC(=O)CN(CCNC(=O)CN(CCNC(=O)[C@H](CCCNC(=N)N)NC(C)=O)C(=O)Cn1ccc(N)nc1=O)C(=O)Cn1cnc2c(=O)[nH]c(N)nc21)C(=O)Cn1cnc2c(=O)[nH]c(N)nc21)C(=O)Cn1ccc(N)nc1=O)NC(=O)[C@H](C)NC(=O)[C@H](CCCNC(=N)N)NC(=O)[C@H](CCCCN)NC(=O)[C@H](CCC(N)=O)NC(=O)[C@H](CCC(N)=O)NC(=O)[C@H](CC(N)=O)NC(=O)[C@@H](NC(=O)[C@H](CC(C)C)NC(=O)[C@H](CC(N)=O)NC(=O)[C@@H]1CCCN1C(=O)[C@H](CC(=O)O)NC(=O)[C@H](CC(C)C)NC(=O)[C@H](C)NC(=O)[C@H](C)NC(=O)[C@H](CCCC(=O)NCCN(CC(=O)NCCN(CC(=O)NCCN(CC(=O)NCCN(CC(=O)N[C@@H](CCCNC(=N)N)C(N)=O)C(=O)Cn1cnc2c(=O)[nH]c(N)nc21)C(=O)Cn1ccc(N)nc1=O)C(=O)Cn1ccc(N)nc1=O)C(=O)Cn1cnc2c(=O)[nH]c(N)nc21)NC(=O)[C@H](Cc1c[nH]c2ccccc12)NC(=O)[C@H](Cc1ccc(O)cc1)NC(=O)[C@H](CCCNC(=N)N)NC(=O)[C@H](CC(N)=O)NC(=O)[C@H](CCCNC(=N)N)NC(=O)[C@H](CCSC)NC(=O)[C@H](CCC(=O)O)NC(=O)[C@H](CCCCN)NC(=O)[C@H](CO)NC(=O)[C@H](Cc1ccccc1)NC(C)=O)[C@@H](C)O)C(=O)N[C@@H](CCCNC(=N)N)C(=O)N[C@@H](CO)C(=O)N[C@H](C(=O)N[C@@H](Cc1ccc(O)cc1)C(=O)N[C@@H](CCC(=O)O)C(=O)N[C@@H](CCC(=O)O)C(=O)NCC(=O)N[C@@H](CCC(=O)O)C(N)=O)[C@@H](C)CC	Receptor tyrosine-protein kinase erbB-2 (ERBB2, Homo sapiens, UniProt P04626)	binding, SPR				Kd	0.0047 µM
CC(C)(C)C(=O)OCOP(=O)(OCOC(=O)C(C)(C)C)C1CCCN(O)C1=O (stereo not drawn)	SW-620					CC50	> 100 µM
O=C1OC(=O)C2C3C=CC(C3)C12 (stereo not drawn)	Beta-lactamase (ampC, Escherichia coli K-12, UniProt P00811)					Kd	1900 µM
CS(C)(=O)=Nc1ccc(-c2ccc(-c3nc4cc(O[C@@H]5CO[C@H]6[C@@H]5OC[C@H]6O)[nH]c4cc3F)cc2)cc1	Amine oxidase [flavin-containing] B (MAOB, Homo sapiens, UniProt P27338)	enzyme activity, inhibitor		10 µM		inhibition	-3%
CNCCCC[C@H](NC(=O)[C@@H](NC(=O)[C@H](CCCNC(=N)N)NC(=O)[C@H](C)N)[C@@H](C)O)C(=O)N[C@@H](CCC(N)=O)C(=O)N[C@H](C(=O)N[C@@H](C)C(=O)N[C@@H](CCCNC(=N)N)C(=O)N[C@@H](CCCCN)C(=O)N[C@@H](CO)C(=O)N[C@H](C(=O)NCC(=O)NCC(=O)N[C@@H](CCCCN)C(=O)N[C@@H](C)C(N)=O)[C@@H](C)O)[C@@H](C)O	Polycomb protein Sfmbt (Sfmbt, Drosophila melanogaster, UniProt Q9VK33)	fluorescence polarization		pH 8.0		Kd	4.3 µM
CN(C)[C@H]1C[C@@]23CC[C@@]4(O2)C(=CC[C@]2(C)[C@@H](c5ccc6ccncc6c5)CC[C@H]24)C=C3[C@@H](O)[C@@H]1O	Calcium/calmodulin-dependent protein kinase type II subunit gamma (CAMK2G, Homo sapiens, UniProt Q13555)	ATP probe labelling, inhibitor, KiNativ profiling		0.1 µM		inhibition	4.8%
O=C1NC2(CC2)COc2ncc(F)cc2[C@H]2COCCN2c2ccn3ncc1c3n2			Sprague-Dawley rat, female, ovaries	oral, 5 mg/kg/day, 4 weeks, end of treatment		organ-to-brain weight ratio	6.72 ± 1.28%
CC(=O)N[C@@H](CO)C(=O)N[C@@H](Cc1ccccc1)C(=O)N[C@@H](CCC(=O)O)C(=O)N[C@@H](Cc1ccccc1)C(=O)N1CC[C@@H]2C=C[C@H]3CC[C@@H](C(=O)N4CCC[C@H]4C(=O)N4CCC[C@H]4C(=O)N[C@H](C(=O)N[C@@H](CCC(=O)O)C(=O)N[C@@H](CC(=O)O)C(=O)N[C@@H](CCC(=O)O)C(=O)N[C@@H](CC(C)C)C(N)=O)[C@@H](C)O)N3C(=O)[C@H]21	Protein enabled homolog (ENAH, UniProt Q8N8S7)	binding, fluorescence				Kd	8 µM
Cn1c2cccc(=O)c-2nc2ccccc21	TetR-family regulator NalD (Pseudomonas aeruginosa, UniProt Q9HY46)	binding, competitive microscale thermophoresis				Kd	36.8 µM

For quick reference, copied from above:
Structure (SMILES)	target or system	assay	test system	conditions	scale	measurement	result
O=C1OC(=O)C2C3C=CC(C3)C12 (stereo not drawn)	Beta-lactamase (ampC, Escherichia coli K-12, UniProt P00811)					Kd	1900 µM
CS(C)(=O)=Nc1ccc(-c2ccc(-c3nc4cc(O[C@@H]5CO[C@H]6[C@@H]5OC[C@H]6O)[nH]c4cc3F)cc2)cc1	Amine oxidase [flavin-containing] B (MAOB, Homo sapiens, UniProt P27338)	enzyme activity, inhibitor		10 µM		inhibition	-3%
